Measured values gathered from unrelated publications.
Parts stem from different laboratories: compare values within a part only.

Set 1 — technique: RNA Bind-n-Seq; molecule type: RNA; medium: in vitro; concentration: not given; baseline: input RNA pool; reading: higher = stronger binding; measurement: bound/input enrichment
Target: RING finger protein unkempt homolog, zinc fingers 1-6, GST-SBP tag (UNK, Homo sapiens, UniProt Q9C0B0, residues 30-357)
Setting: RNA with constant flanks, human and mouse sites, ends assumed
Target sequence (chain): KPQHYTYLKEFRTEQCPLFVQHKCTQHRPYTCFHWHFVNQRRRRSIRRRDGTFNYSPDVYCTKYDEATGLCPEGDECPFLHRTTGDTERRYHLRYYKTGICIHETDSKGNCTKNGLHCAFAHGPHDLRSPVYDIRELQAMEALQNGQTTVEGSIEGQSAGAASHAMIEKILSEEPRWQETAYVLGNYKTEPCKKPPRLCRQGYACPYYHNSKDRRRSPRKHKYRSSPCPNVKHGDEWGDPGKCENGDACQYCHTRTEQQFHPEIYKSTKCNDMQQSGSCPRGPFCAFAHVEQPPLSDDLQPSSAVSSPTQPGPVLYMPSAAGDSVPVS
Sequence = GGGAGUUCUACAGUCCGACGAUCUUGUGGGCGUUCUCGGGGAGCUGCUGCCGUAGCUGCCGCCGCCGCUACCACCGCGUUCGGGUGUAGAAUUUGGAAUCCCUGCGCCGCGUUAACAAUGAAGCAGAGUUCGAACGUGCCGGCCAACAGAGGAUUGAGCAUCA; value = 0.0592 ratio
Sequence = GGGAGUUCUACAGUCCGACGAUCAUGGAACAUUUCGAUGCGUCACUCAGUACCUAUUUCAAGGCCUUCCUGGGCCCCCGAGAUACAAGAGUCAAAGGAUGGUUCCUCCUGGACAAUUACAUCCCUACGUUUGUCUGUUCUGUUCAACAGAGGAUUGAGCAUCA; value = 0.0841 ratio
Sequence = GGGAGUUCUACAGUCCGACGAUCCGGAAACACAUCCAGGAUGAAAAGCUAGUCCGGUACUUCUUGGAUAAAACACUGACGUCAAGACUUGGGAUCCGAAUGCUGGCUACUCACCACUUGGCGCUACAUGAAGACAAGCCUGAUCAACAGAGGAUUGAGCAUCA; value = 0.135 ratio
Sequence = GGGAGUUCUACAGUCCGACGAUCUCCAGAAGCACUGCGUAUGAAGAUUAUUACUACCACCCUCCUCCUCGCAUGCCACCUCCAAUUAGAGGUCGGGGUCGUGGUGGGGGGAGAGGUGGAUAUGGCUACCCUCCAGAUUACUACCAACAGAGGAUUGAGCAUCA; value = 0.107 ratio
Sequence = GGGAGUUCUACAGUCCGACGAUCGUGUUGCACCUAGAUAGAGUGAAAAGAUACAUCGUGGAACACGUAGAUCUGGGUGCAUACUAUUAUAGAAAAUUUUUCUACCAGAAGGAACACUGGAACUAUUUUGGGGCUGAUGAGAAUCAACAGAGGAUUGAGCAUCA; value = 1.15 ratio
Sequence = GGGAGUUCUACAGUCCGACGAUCCCGCUUAAGGCUUCUUGUAGUACAAACAUCAAUAAUCAGGAAAGUCAGGAACUUUCUGAAUCCCUGAAAGAUAGUGCCACCAGCAAAACUUUUGAAAAGAAUGUUGUACGGCAGAAUAAACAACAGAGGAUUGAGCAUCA; value = 0.185 ratio
Sequence = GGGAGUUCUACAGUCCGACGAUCCGUUCUGCUAACACUAUCAAUUAUGCAUCGUGUUGAACGAAGCUUCGGGGAGGGGGAGGCUAGCAGGCGGCAGGAGGAAAAGGGUCCGGGAGAGCCAGGCAGCGCAGUUCAGCAGGUCCCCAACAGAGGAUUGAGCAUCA; value = 0.286 ratio
Sequence = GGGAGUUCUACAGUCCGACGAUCGGGGUUCCUAGUACUGCAAUUCGGGAAAUUUCUCUAUUAAAGGAACUUCGUCAUCCAAAUAUAGUCAGUCUUCAGGAUGUGCUUAUGCAGGAUUCCAGGUUAUAUCUCAUCUUUGAGUUUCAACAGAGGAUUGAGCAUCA; value = 0.121 ratio
Sequence = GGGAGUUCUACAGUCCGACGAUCUUCAUUUUAGAGAAGAUACAAGGGAAAAUUACUAUAGAGAAUAGGUCAAAGAAAGAUUUGAUUCAAAUGUUAGUCCAGAGAGGUUAUGAAUCUGACCCAGUGAAAGCCUGGAAAGAAGCACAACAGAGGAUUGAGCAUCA; value = 12.1 ratio
Sequence = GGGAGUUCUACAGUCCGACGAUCGCUCCAGCUGCCAACGCUGCGGAACCUAAGUCCGAUGGCGUUCUCGCCAUGACUUUUAAGAUUUUCCUUCUUUUUGCAGGACUUAUGGUUAAAGUGCCAGUGGGGCUGUAUUUUUCCUGUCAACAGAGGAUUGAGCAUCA; value = 0.197 ratio
Sequence = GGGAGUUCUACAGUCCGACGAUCCAAAUUCAUCUCUUUUUAUAUGUCCGAAAACGGCCGAGCUUUUCAGCAGUGGCUGGCUUGGCCGACUCUGCCGUCCCUGGCAGAGCGUUGUUACUGUUGCUCCUUAGCAGCUGCUGCCUGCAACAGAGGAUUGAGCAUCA; value = 0.585 ratio

Set 2 — technique: universal PBM; molecule type: double-stranded DNA, one strand shown; medium: in vitro; concentration: not given; reading: higher = stronger binding; measurement: E-score
Target: Sal-like protein 4, full length isoform B (SALL4, Homo sapiens, UniProt Q9UJQ4-2, residues 1-616)
Setting: 8-mer, flanks averaged, mean of replicates
Sequence = CAGCCGAG; value = -0.22
Sequence = CGCGCGGA; value = -0.331
Sequence = ACTTTCTA; value = 0.226
Sequence = CAGCATTC; value = -0.0276
Sequence = GGGCCATA; value = -0.0392
Sequence = CACTCACC; value = -0.122
Sequence = AAAACTGC; value = 0.00601
Sequence = ACACAAGT; value = 0.139
Sequence = GCAGAATA; value = 0.163
Sequence = CTCACTAA; value = -0.111
Sequence = TCGTAGCA; value = 0.0965
Sequence = CAAAGAAG; value = -0.0155
Sequence = ACGATAAC; value = 0.122
Sequence = ACGGGATA; value = -0.0235
Sequence = GTTTAAAC; value = 0.238

Set 3 — technique: competition protein-binding microarray; molecule type: double-stranded DNA, one strand shown; medium: in vitro; concentration: 2 µM; together with: Cbf1 competitor, 0.05 µM; reading: higher = stronger binding; measurement: fluorescence intensity
Target: Phosphate system positive regulatory protein PHO4, full length, GST-tagged (PHO4, Saccharomyces cerevisiae, UniProt P07270, residues 1-312)
Setting: whole 60-bp probe, lowest competitor level
Construct (chain): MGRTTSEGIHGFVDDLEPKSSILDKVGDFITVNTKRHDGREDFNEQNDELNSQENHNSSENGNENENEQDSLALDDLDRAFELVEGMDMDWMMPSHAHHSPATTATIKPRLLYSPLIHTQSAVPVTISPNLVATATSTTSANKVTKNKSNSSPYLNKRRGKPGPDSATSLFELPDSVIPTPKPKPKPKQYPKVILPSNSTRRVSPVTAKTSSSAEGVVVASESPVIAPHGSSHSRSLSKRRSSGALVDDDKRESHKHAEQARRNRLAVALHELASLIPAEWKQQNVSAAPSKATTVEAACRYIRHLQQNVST
Sequence = ACTCTACGGATGAGTCAGGTGATGGGTCTTATCAAGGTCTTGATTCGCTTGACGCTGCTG; value = 5440 a.u.
Sequence = ATTCATTCAAGCTAGCAAACTTAGATCTCAAAAAATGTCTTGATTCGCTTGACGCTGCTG; value = 3560 a.u.
Sequence = TGCGCAACAACTTGGCCCGTGGGTGTATGTCTAGAAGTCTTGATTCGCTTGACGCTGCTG; value = 8820 a.u.
Sequence = ATGCTGCTAAAGGAACACGTGAGAAATTACATTCTCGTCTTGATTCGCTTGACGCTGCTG; value = 15500 a.u.
Sequence = TTCTTGGAGTCGTAGAACATGACAACCGGGGGAGCAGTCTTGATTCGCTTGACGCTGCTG; value = 4160 a.u.
Sequence = CTTTCCCGATCTTGACACGTGGGTGTAGCACATTTGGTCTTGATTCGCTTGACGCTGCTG; value = 17200 a.u.
Sequence = CTGTGTGACCTTGGACACATGGCTCAACCTCTGTGAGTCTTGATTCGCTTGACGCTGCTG; value = 9530 a.u.
Sequence = TTGTTATCGTTAAACCACATGATGAAGGTTCCAAGTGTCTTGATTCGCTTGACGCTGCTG; value = 7200 a.u.
Sequence = GAAAATGGCCCAAGTAGCGTGACAAGTCTCTGGTAAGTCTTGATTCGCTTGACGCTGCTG; value = 4370 a.u.
Sequence = TGTTTAGAGAGTCTTGCCTTCAGGTTTAATATAGTCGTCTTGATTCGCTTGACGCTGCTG; value = 3000 a.u.
Sequence = GCTGCTGGCTAAAATAGTGTGACGAAACGTACATAGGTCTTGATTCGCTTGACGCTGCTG; value = 4330 a.u.
Sequence = CATACCCAACCTTTTCACGTGTTGTAAGATATTTGTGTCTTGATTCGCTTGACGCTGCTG; value = 16600 a.u.
Sequence = AAATTACTAAGTTGACAGGTGGGTGACGCCGTATGAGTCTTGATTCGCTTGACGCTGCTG; value = 5990 a.u.

Set 4 — technique: RNA Bind-n-Seq; molecule type: RNA; medium: in vitro; concentration: 365 nM; baseline: no-protein control; reading: higher = stronger binding; measurement: RBNS enrichment (R)
Target: RNA binding protein fox-1 homolog 2, RRM domain, GST-SBP tag (RBFOX2, Homo sapiens, UniProt O43251-10, residues 100-194)
Setting: natural RNA segment, single round, ends assumed
Residues (chain): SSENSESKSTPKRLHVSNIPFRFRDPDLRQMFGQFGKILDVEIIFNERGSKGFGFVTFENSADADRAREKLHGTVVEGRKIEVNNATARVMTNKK
Sequence = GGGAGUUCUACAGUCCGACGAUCAGCCUGCUAUCACUCCUUCAAGCACAGUUCUGAACCCAGUCCAUCCAUCCAGUGGGCCAGCUCCCAGACAGCCAUUCCCAGGUCAUCUUCUUUAAGACAGUGCUAGAGUAUGGAAUUCUCGGGUGCCAA; value = 0.452
Sequence = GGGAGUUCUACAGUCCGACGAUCGGGAGCCUCUAAAAAAAUUUUUCACUGGGGGCCACGUGGGUCAUUAGAAGCCAGAGCUCUCCUCCAGGCUCCUUCCCAGUGCCUAGAGGUGCUAUAGGAAACAUAGAUCCUGGAAUUCUCGGGUGCCAA; value = 0.317
Sequence = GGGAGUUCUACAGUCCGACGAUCUGAAGCCUCUCACUAACCCCUAGCUCCAGGAGUACCUCAGCAAUGUCCAUGGCUGAAGCUACACCCAGAGACAGAGCUGCAGAAUGAGAGAGACCCAGCCGGAGGGAUGCUGGAAUUCUCGGGUGCCAA; value = 0.389
Sequence = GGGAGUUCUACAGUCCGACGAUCAUGGGAACAAGUGCCUUUGUUCGAAAAAUCUAUACUAAUGUGAAAAUUGACUAGAUAUCUGAGACAACAUGGAACUUCGGAUCAGUUUCUCUUUCAUGAGGGUGGAACUUUGGAAUUCUCGGGUGCCAA; value = 0.369
Sequence = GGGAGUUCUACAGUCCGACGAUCUAGGCCGGCCUGGCCGCACCCCUGCGCCCUCAAGCCAUGCUGCUCCUUGUAAAUACCCGCUGCUGCGGUGGCCCUGAGCGAGGAACAAGCCAUUCGGACCCGACCGAUGUUGGAAUUCUCGGGUGCCAA; value = 0.273
Sequence = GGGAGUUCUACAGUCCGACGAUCCAAGCAAAGGUCAUCACAGUGACCCAACCCAGACACUUCCCCAGCAGCCUCCCCAUACUCUGCUCCUGAUGUGGCAACCCUUGUCGGCUCCUGCCUUUGCCCCCCACUUUUGGAAUUCUCGGGUGCCAA; value = 0.356
Sequence = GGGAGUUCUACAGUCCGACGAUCUGUUGCAAUUUCUGCUUCCACCUAUUUUCCAAGCAUUUUACUUAAGAAGGAUACUGUGUAGUUGAACUAAGGCUCUUUCCAGGCCGGGCUUGCAUCCUGUUGUGUAUUCUUGGAAUUCUCGGGUGCCAA; value = 0.82
Sequence = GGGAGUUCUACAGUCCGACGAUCCUUUCAAGGUACAAAAGUAUGUCUUUUAAAAUGGAAGUAACGUUUGUUUAGCUAGUGAAUGUGACAAUAUAUUUUAUGUAUAUAAUGAGUCUAAUGUAAUUUUGAUCAACUGGAAUUCUCGGGUGCCAA; value = 1.08
Sequence = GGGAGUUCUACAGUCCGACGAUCCUAAGCCAAGUUUCUUUUAGAGACAUUUUAACUUAUUUAGCUGAACUCUAGAUUUUUUGGUAAACUAUCAAUCUGUAUAUGUUGUAAUUAAGUGUCUAAUGCUAGGAGUUUGGAAUUCUCGGGUGCCAA; value = 0.572

A few entries again (set 2):
Sequence = ACACAAGT; value = 0.139
Sequence = GCAGAATA; value = 0.163
Sequence = CTCACTAA; value = -0.111
Sequence = TCGTAGCA; value = 0.0965
Sequence = CAAAGAAG; value = -0.0155
Sequence = ACGATAAC; value = 0.122
